Assay results pooled from the literature.
Protocols differ between the studies behind these lines. ± marks the error that the study gave.
POLB: DNA polymerase beta (POLB, Homo sapiens, UniProt P06746)
UniProt P63073, sequence (whole entry, looked up): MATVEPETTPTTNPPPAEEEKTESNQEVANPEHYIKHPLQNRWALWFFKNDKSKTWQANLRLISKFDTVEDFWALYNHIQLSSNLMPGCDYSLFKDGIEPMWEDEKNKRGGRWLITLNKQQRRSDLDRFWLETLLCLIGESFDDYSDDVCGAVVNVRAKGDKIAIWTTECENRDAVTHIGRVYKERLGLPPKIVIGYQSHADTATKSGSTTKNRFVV
UniProt Q969S8, sequence (whole entry, looked up): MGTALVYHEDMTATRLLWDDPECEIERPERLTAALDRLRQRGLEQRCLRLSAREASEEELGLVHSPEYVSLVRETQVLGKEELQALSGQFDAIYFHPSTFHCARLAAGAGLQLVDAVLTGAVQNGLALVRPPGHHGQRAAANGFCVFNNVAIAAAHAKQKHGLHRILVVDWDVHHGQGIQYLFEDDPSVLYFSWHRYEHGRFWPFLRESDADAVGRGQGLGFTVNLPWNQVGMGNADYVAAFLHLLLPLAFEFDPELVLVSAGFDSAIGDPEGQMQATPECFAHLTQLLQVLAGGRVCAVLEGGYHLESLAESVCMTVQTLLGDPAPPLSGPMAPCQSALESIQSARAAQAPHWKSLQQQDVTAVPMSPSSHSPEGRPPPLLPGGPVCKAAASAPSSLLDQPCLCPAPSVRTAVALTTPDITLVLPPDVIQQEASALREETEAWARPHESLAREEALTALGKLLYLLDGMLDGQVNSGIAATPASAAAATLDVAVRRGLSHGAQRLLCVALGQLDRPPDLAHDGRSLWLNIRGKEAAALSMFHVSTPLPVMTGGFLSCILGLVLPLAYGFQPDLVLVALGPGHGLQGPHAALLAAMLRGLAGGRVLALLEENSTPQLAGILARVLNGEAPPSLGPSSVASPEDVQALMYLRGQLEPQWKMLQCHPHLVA

CC[C@H](C)[C@@H]1NC(=O)[C@H](C)NC(=O)[C@H](C)NC(=O)[C@H]([C@@H](C)O)NC(=O)[C@H](Cc2ccccc2)NC(=O)[C@@H]2CSSC[C@@H]3NC(=O)[C@H](C(C)C)NC(=O)[C@H](CCCCN)NC(=O)[C@H](CO)NC(=O)[C@H](CCCCN)NC(=O)[C@@H]4CSSC[C@H](NC(=O)[C@H](CO)NC(=O)[C@H](CCC(=O)O)NC(=O)CNC(=O)[C@H](CSSC[C@H](NC(=O)CNC1=O)C(=O)N[C@@H](CO)C(=O)N4)NC(=O)[C@@H]1CCCN1C(=O)[C@H](Cc1ccccc1)NC(=O)CNC(=O)[C@H](CC(N)=O)NC(=O)[C@H](CCCCN)NC(=O)[C@H](Cc1ccc(O)cc1)NC3=O)C(=O)N[C@@H](C(C)C)C(=O)N[C@@H](Cc1ccc(O)cc1)C(=O)N[C@@H](C)C(=O)N1CCC[C@H]1C(=O)N2 gave a Kd of 21.5 ± 0.45 µM (POPC/POPE lipid membrane; membrane binding, surface plasmon resonance; POPC/POPE 80:20 vesicles; pH 7.4).
The Kd of CC(C)CCCC(C)C1CCC2C3CC=C4CC(OC(=O)CCC(=O)NCCCCCCNC(=O)O[C@H]5[C@@H](O)[C@H](n6cnc7c(=O)[nH]c(N)nc76)O[C@@H]5COP(=O)(O)OP(=O)(O)OP(=O)([S-])OC[C@H]5O[C@@H](n6c[n+](C)c7c(O)nc(N)nc76)[C@H](O)[C@@H]5O)CCC4(C)C3CCC12C (mixture of isomers) is reported as 0.026 µM (Eif4e (Mus musculus, UniProt P63073); cap analogue binding, pyrene fluorescence competition; 20 °C).
The Kd of CC[C@H](C)[C@@H]1NC(=O)[C@H](C)NC(=O)[C@H](C)NC(=O)[C@H]([C@@H](C)O)NC(=O)[C@H](Cc2ccccc2)NC(=O)[C@@H]2CSSC[C@@H]3NC(=O)[C@H](C(C)C)NC(=O)[C@H](CCCCN)NC(=O)[C@H](CO)NC(=O)[C@H](CCCCN)NC(=O)[C@@H]4CSSC[C@H](NC(=O)[C@H](CO)NC(=O)[C@H](CCC(=O)O)NC(=O)CNC(=O)[C@H](CSSC[C@H](NC(=O)CNC1=O)C(=O)N[C@@H](C)C(=O)N4)NC(=O)[C@@H]1CCCN1C(=O)[C@H](Cc1ccccc1)NC(=O)CNC(=O)[C@H](CC(N)=O)NC(=O)[C@H](CCCCN)NC(=O)[C@H](Cc1ccc(O)cc1)NC3=O)C(=O)N[C@@H](C(C)C)C(=O)N[C@@H](Cc1ccc(O)cc1)C(=O)N[C@@H](CC(C)C)C(=O)N1CCC[C@H]1C(=O)N2 is reported as 4.2 ± 0.23 µM (POPC/POPE lipid membrane; membrane binding, surface plasmon resonance; POPC/POPE 80:20 vesicles; pH 7.4).
NS(=O)(=O)c1c(F)c(F)c(SCCO)c(NC(c2ccccc2)C(O)c2ccccc2)c1F (stereo not shown) has a Kd of 0.046 µM (CA2 (Homo sapiens, UniProt P00918, A65S/F130A/I91T/L203N/N67K/V134S); pH 7).
The Kd of Nc1nc2c(ncn2[C@H]2C[C@H](O)[C@@H](COP(=O)(O)OP(=O)(O)[C@@H](F)P(=O)(O)O)O2)c(=O)[nH]1 is reported as 39 ± 8 µM (DNA polymerase beta (POLB, Homo sapiens, UniProt P06746, R183A); substrate, pre-steady-state kinetics; incorporation opposite dC in gapped DNA).
With C[n+]1cn([C@@H]2O[C@H](COP(=O)(O)OP(=O)([O-])C(F)(F)P(=O)(O)O)[C@@H](O)[C@H]2O)c2nc(N)nc(O)c21 the Kd was 0.00868 µM (Eukaryotic translation initiation factor 4E, residues 28-217 (Eif4e, Mus musculus, UniProt P63073); binding, fluorescence quenching titration; pH 7.2, 20 °C).
With Nc1nc2c(ncn2[C@H]2C[C@H](O)[C@@H](COP(=O)(O)OP(=O)(O)CP(=O)(O)O)O2)c(=O)[nH]1 the Kd was 1160 ± 189 µM (POLB; nucleotide binding, substrate, single turnover kinetics; 37 °C, dG misincorporation opposite A).
With CNCCNC(=O)CN1C(=O)Cc2c([nH]c3ccc(Br)cc23)-c2ccc(Cl)cc21 the Kd was 6.5 µM (Trypanothione synthetase (Leishmania infantum, UniProt A4I2Z3); isothermal titration calorimetry; 28 °C, apo enzyme).
COc1ccc(C(=O)NO)cc1NC(=O)c1ccc(-c2ccccc2)cc1 gave a Kd of 0.631 µM (HDAC10 (Homo sapiens, UniProt Q969S8); chemoproteomic pulldown; SW-620/MV4-11 lysate; 1 h, 30 °C).
The Kd of Cc1cn(C2CC(O)C(COP(=O)(O)OP(=O)(O)C(F)P(=O)(O)O)O2)c(=O)[nH]c1=O (mixture of isomers) is reported as 83.6 ± 9.2 µM (POLB; dNTP binding, substrate, single-turnover kinetics; single-nucleotide gapped DNA; 37 °C, wild type, correct incorporation, with: dTTP opposite template A).

Repeated from above:
The Kd of Cc1cn(C2CC(O)C(COP(=O)(O)OP(=O)(O)C(F)P(=O)(O)O)O2)c(=O)[nH]c1=O (mixture of isomers) is reported as 83.6 ± 9.2 µM (POLB; dNTP binding, substrate, single-turnover kinetics; single-nucleotide gapped DNA; 37 °C, wild type, correct incorporation, with: dTTP opposite template A).
COc1ccc(C(=O)NO)cc1NC(=O)c1ccc(-c2ccccc2)cc1 gave a Kd of 0.631 µM (HDAC10 (Homo sapiens, UniProt Q969S8); chemoproteomic pulldown; SW-620/MV4-11 lysate; 1 h, 30 °C).
